{"data": "Measured values of several laboratories", "note": "Numbered parts are unrelated; each lists some results of a single study."}
{"data": "Block 1", "target": "Fragile X messenger ribonucleoprotein 1, C-terminal low-complexity region (Fmr1, Mus musculus, UniProt P35922)", "technique": "RNA Bind-n-Seq", "molecule type": "RNA", "medium": "in vitro", "concentration": "200 nM", "setting": "whole 134-nt RNA, ends assumed", "together with": "150 mM LiCl", "reference": "input library", "direction": "higher = stronger binding", "library": "7-deaza-guanosine replaces G"}
{"Strand": "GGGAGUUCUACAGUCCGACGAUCGGGGUGAGCACAGACAGGAUCGCAGGGAGAGGCCGUAUUAAUUAGCCUGGCUCCCCAGGUUCUGGAACAGCUUUUUGUCCUGUACCCAGUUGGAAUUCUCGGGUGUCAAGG", "log2 enrichment": 0.958}
{"Strand": "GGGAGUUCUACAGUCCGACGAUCCACAGACAACACGCACCCACACAGACACAGAGGGAAGGGGUUGGGAUGGGGACAGGGUGCACUGCAGGGCGGGGUAGGACCCCAGCCCCUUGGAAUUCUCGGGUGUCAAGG", "log2 enrichment": -0.922}
{"Strand": "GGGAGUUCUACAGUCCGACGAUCCACAGACAACACGCCCCCACACAGACACAGAGGGAAGGGGUUGGGAUGGGGACAGGGUGCACAGCAGGGCGGGGUAGGACCCCAGCCCCUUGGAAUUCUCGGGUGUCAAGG", "log2 enrichment": -1.22}
{"Strand": "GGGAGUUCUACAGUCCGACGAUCCAAGUCCUGUGCUACACAUCGUAUGUACCGAAUCGGGUGGGAGGGAAAAAAAGGGAAAGUAUUAUGUUACGCCGUUCGGAUCUGCACUUCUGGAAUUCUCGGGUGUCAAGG", "log2 enrichment": 0.0287}
{"Strand": "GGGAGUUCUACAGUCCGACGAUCCUGUGCUACACAUCGUAUGUACCGAAUCGGGGAAAAAAAGGGGUUUGGGGUUUUUUUGGGGAAAGUAUUAUGUUACGCCGUUCGGAUCUGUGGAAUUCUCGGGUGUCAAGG", "log2 enrichment": -0.831}
{"Strand": "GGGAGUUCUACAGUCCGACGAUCCUGUGCUACACAUCGUAUGUACCGAAUCGGGGAAAAAAGGGGAAAAAAGGGGAAAAAAGGGAAAGUAUUAUGUUACGCCGUUCGGAUCUGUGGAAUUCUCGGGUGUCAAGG", "log2 enrichment": 0.761}
{"Strand": "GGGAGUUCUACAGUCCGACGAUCAGUCCUGUGCUACACAUCGUAUGUACCGAAUCGGAAAAAGGGAAAAAGGGAAAAAGGGAAAGUAUUAUGUUACGCCGUUCGGAUCUGCACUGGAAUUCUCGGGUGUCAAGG", "log2 enrichment": -0.867}
{"Strand": "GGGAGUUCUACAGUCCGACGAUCAGUCCUGUGCUACACAUCGUAUGUACCGAAUCGGGAAAAAGGGAAAAAAAGGGAGGGAAAGUAUUAUGUUACGCCGUUCGGAUCUGCACUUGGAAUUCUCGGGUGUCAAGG", "log2 enrichment": -0.795}
{"data": "Block 2", "target": "Sal-like protein 4, full length isoform A (SALL4, Homo sapiens, UniProt Q9UJQ4, residues 1-1053)", "technique": "universal PBM", "molecule type": "double-stranded DNA, one strand shown", "medium": "in vitro", "concentration": "600 nM", "setting": "8-mer, flanks averaged, mean of replicates", "direction": "higher = stronger binding", "chain of UniProt Q9UJQ4 (whole entry, looked up)": "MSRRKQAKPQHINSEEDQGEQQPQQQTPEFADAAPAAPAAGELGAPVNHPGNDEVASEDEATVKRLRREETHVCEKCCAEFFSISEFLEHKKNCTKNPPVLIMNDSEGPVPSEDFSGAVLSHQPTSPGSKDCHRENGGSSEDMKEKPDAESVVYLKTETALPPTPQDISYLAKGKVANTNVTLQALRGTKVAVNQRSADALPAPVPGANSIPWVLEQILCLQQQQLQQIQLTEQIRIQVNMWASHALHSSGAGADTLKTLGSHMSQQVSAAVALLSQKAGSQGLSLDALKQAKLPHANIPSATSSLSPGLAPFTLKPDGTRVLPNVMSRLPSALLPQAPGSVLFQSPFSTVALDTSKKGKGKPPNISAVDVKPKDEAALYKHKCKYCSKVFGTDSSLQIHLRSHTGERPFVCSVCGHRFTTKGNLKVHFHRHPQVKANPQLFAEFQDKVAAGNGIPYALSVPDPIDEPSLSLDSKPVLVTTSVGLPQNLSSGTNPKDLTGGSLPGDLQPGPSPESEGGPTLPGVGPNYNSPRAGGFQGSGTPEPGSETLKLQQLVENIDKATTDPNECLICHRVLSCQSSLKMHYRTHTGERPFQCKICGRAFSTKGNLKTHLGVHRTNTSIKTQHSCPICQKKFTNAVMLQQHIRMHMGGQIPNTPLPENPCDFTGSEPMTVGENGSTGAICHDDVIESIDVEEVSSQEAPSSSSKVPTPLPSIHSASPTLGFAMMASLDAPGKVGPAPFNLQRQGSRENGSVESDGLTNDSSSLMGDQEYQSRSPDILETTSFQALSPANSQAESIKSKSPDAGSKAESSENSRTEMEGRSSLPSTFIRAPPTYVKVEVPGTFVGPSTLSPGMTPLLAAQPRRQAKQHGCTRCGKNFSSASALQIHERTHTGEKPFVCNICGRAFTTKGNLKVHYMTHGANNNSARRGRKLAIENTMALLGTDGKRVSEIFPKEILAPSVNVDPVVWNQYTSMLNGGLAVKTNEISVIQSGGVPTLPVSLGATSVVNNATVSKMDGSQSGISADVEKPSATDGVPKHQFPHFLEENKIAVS"}
{"Strand": "AGTCAGAG", "E-score": -0.147}
{"Strand": "ACGATGAC", "E-score": -0.0171}
{"Strand": "AGACCCCA", "E-score": -0.131}
{"Strand": "AACGCGGC", "E-score": -0.222}
{"Strand": "ACTGACAA", "E-score": 0.0701}
{"Strand": "GTTAAGTA", "E-score": 0.211}
{"Strand": "TCAGCACA", "E-score": 0.0677}
{"Strand": "CGTCTTCA", "E-score": 0.011}
{"Strand": "CAGCACTA", "E-score": -0.131}
{"Strand": "GATGGCTA", "E-score": 0.0784}
{"Strand": "AAATATGG", "E-score": 0.354}
{"Strand": "ACTAATGG", "E-score": 0.0937}
{"Strand": "GTAAACTA", "E-score": 0.244}
{"Strand": "AACTAAAG", "E-score": 0.258}
{"Strand": "GGGTAGCA", "E-score": -0.0927}
{"Strand": "CATATCCG", "E-score": 0.0839}
{"Strand": "ACGTCGCT", "E-score": -0.224}
{"Strand": "AACGCTCT", "E-score": -0.147}
{"Strand": "CGATACGA", "E-score": 0.0387}
{"Strand": "AATGAGGG", "E-score": -0.0719}
{"Strand": "TATTGTGA", "E-score": 0.232}
{"data": "Block 3", "target": "RNA binding protein fox-1 homolog 2, RRM domain, GST-SBP tag (RBFOX2, Homo sapiens, UniProt O43251-10, residues 100-194)", "technique": "RNA Bind-n-Seq", "molecule type": "RNA", "medium": "in vitro", "concentration": "365 nM", "setting": "natural RNA segment, single round, ends assumed", "reference": "no-protein control", "direction": "higher = stronger binding", "Residues (chain)": "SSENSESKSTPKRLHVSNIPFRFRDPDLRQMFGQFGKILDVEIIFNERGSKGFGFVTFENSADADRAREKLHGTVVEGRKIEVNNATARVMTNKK"}
{"Strand": "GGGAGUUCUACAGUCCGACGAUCGCGGCCCGUGCGCAGCCGCGCUCUGCCCCUCCGUCCCCAGGGUGCAGGCGCGCACCGCCCAACCCCCACCUCCCGGUGUAUGCAGUGGUGAUGCCUAAAGGAAUGUCACGUGGAAUUCUCGGGUGCCAA", "RBNS enrichment (R)": 1.07}
{"Strand": "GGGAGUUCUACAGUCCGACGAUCUUGUUAGGCCCACCACACGAGUUUACAGGUCUGUGGCAAUACUCUUAACUCAGUAAAGAUGGAAGUGGUAAAGAAACCAAGUAGACAGUAGGGGCUCUUGAGAGUAUUGAUGGAAUUCUCGGGUGCCAA", "RBNS enrichment (R)": 1.23}
{"Strand": "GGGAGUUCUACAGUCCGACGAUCGACUUGGUCAAGUGAGCAACUGAUUCUUGUUUUUAGCAACUCAAAACAUAAAAAGAUCAGGAGAGCAUGACACGGUCUCUUUGUGGCCAGUCAGAAAAGCAAACUAACAGUGGAAUUCUCGGGUGCCAA", "RBNS enrichment (R)": 14.6}
{"Strand": "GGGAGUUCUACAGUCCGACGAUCCGUCCAAUGAUUUCAACCCUGCAGAGCACCCCGACAAUCCUGAGGCUGCAUCGGGAGCUAGAGCCAGCUAACAUUUCCUCUUUUCAAGACUGCCCUUGAUUUGCCCCUUGUGGAAUUCUCGGGUGCCAA", "RBNS enrichment (R)": 0.365}
{"Strand": "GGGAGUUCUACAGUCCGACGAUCUCUGCAGGACAUCUGGUCCUAAACUGGAACAGAGACGCUUGGAAUUUGUUUUUGUUUUUGUUUGUUUGUUUGUUUUUUCUUGAAGUGCCAAAGGUCAAUUUUACAGAAGAUGGAAUUCUCGGGUGCCAA", "RBNS enrichment (R)": 5.24}
{"Strand": "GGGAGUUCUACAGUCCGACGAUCUGUUUUGUUUUCCUUUUUCUUUAAAUCUUGGACUUUAAACCCUACCUGUGUGAUUCAGUAGGGUUUGAGACUUACGUGUGAUACUGACAGGUAAGCAACAGUGCUAGCAUUGGAAUUCUCGGGUGCCAA", "RBNS enrichment (R)": 0.245}
{"Strand": "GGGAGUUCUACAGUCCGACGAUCUUCUCCAGUCCUACAGAUGAAAGCAAAGUAGGAAAUGAUCAUGGGCUUAUUGGGGCUUUUAGCAUCUCUAGUAAGUAGCAUACAGCUUUGGCUGGCUUUCUAUCCACAAAUGGAAUUCUCGGGUGCCAA", "RBNS enrichment (R)": 2.92}
{"Strand": "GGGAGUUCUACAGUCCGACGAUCGCCUUCCCCUGAUAACCAUUUUAACCCAUGGCCUUCGUCAAAACCCUUUCAUUUAGCUACUUCAAAUAAUGUUAUCCACCUCCUGUCUCACAGCAGUGGGUACAGCCUGUUGGAAUUCUCGGGUGCCAA", "RBNS enrichment (R)": 0.669}
{"data": "Block 4", "target": "Histone acetyltransferase KAT6A, winged helix 1, GST fusion (KAT6A, Homo sapiens, UniProt Q92794, residues 1-85)", "technique": "protein binding microarray", "molecule type": "double-stranded DNA, one strand shown", "medium": "in vitro", "concentration": "not given", "setting": "8-mer, flanks averaged, mean of 2 arrays, mostly near background", "reference": "not given", "direction": "higher = stronger binding", "Target sequence (chain)": "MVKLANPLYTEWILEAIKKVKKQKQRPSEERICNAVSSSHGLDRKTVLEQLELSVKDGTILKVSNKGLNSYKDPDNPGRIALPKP"}
{"Strand": "CAGGATAC", "E-score": -0.104}
{"Strand": "AATCCAGT", "E-score": -0.176}
{"Strand": "GGTCTTTA", "E-score": -0.000355}
{"Strand": "AAGAACCC", "E-score": -0.0163}
{"Strand": "AGCTGGGA", "E-score": -0.283}
{"Strand": "ACCTATCA", "E-score": -0.0727}
{"Strand": "ACCCCCAT", "E-score": -0.214}
{"Strand": "ATTTGTCA", "E-score": -0.266}
{"Strand": "AATCTGAC", "E-score": -0.163}
{"Strand": "GATTTCCC", "E-score": -0.0169}
{"Strand": "AAAAAGGT", "E-score": -0.149}
{"Strand": "GAGGAATC", "E-score": -0.0326}
{"Strand": "CCTACTTA", "E-score": -0.175}
{"Strand": "CGTCATCC", "E-score": 0.188}
{"Strand": "CGTACCCC", "E-score": 0.237}
{"Strand": "ACCCCTCA", "E-score": -0.0915}
{"Strand": "CCCCTACC", "E-score": -0.185}
{"Strand": "ACAGGGCT", "E-score": -0.0641}
{"Strand": "AGGAACAG", "E-score": -0.175}
{"Strand": "GAGTTCCA", "E-score": -0.229}
{"Strand": "GTAGTGCA", "E-score": -0.0181}
{"Strand": "CCCTTTCG", "E-score": -0.00732}
{"Strand": "CCTACCGC", "E-score": 0.278}
{"Strand": "ACCATAGC", "E-score": -0.0715}
{"Strand": "GGAGCCAA", "E-score": -0.158}
{"note": "For quick reference, copied from above (block 4):"}
{"Strand": "CGTACCCC", "E-score": 0.237}
{"Strand": "ACCCCTCA", "E-score": -0.0915}
{"Strand": "CCCCTACC", "E-score": -0.185}
{"Strand": "ACAGGGCT", "E-score": -0.0641}
